Published values gathered from unrelated publications.
Each line is one published result; not all experiments were run side by side. ± marks the error that the study gave.

SMILES	target or system	assay	system	conditions	how to read	quantity	value
[Cl-].[Cl-].[Ru+2].c1ccc(-c2ccccn2)nc1.c1ccc(-c2ccccn2)nc1.c1ccc2cc3nc4c5cccnc5c5ncccc5c4nc3cc2c1	SK-MEL-28	cell viability		dark, hypoxia 1 % oxygen		EC50	136 ± 3 µM
Cc1ncsc1-c1ccc(C(C)NC(=O)C2CC(O)CN2C(=O)C(NC(=O)CCCCCCCCCCN2CCCC(Nc3ncc(Cl)c(Nc4ccccc4S(=O)(=O)C(C)C)n3)C2)C(C)(C)C)cc1 (stereo not shown)	22Rv1	RNA-seq, measured: SPATA2L mRNA		concentration not given	reference: DMSO	log2 fold change	-1.18
C=C(NC(=O)c1csc(-c2cccnc2)n1)C(=O)NC(=C)C(=O)OC	SCC-90	cell viability				EC50	6.7 µM
CNS(=O)(=O)Nc1nccc(Cc2c(C)c3ccc(Oc4ncccc4F)cc3oc2=O)c1F	HMC-1.2	cell viability, CellTiter-Glo		7 days		IC50	0.0242 µM
CC(=S)NCCCC[C@H](NC(=O)OCc1ccccc1)C(=O)N[C@@H](Cc1c[nH]c2ccccc12)C(=O)NC(C)C	Jurkat	cell growth or viability, MTT		72 h		EC50	65 to 76 µM
Nc1ncc(-c2cc(-c3cnn(CC(F)(F)F)c3)ncc2F)nc1C(=O)NC1CNCC(F)C1 (stereo not shown)	CAMK2G	KINOMEscan		1 µM	reference: DMSO control	remaining binding	96%
COC1CN([C@H]2CC[C@H]([C@@]3(C)Oc4c(Cl)cc(C(=O)NCc5c(SC)cc(C)[nH]c5=O)c(C)c4O3)CC2)C1		RNA-seq, measured: TRPC1 mouse homolog	mouse, HT-1376 xenograft, whole blood	dose not given	reference: vehicle	log2 fold change	0.348
Cc1cccc(-c2cccc(C)n2)n1.Cc1cccc(-c2cccc(C)n2)n1.F[P-](F)(F)(F)(F)F.F[P-](F)(F)(F)(F)F.[Ru+2].c1ccc(-c2nc3c4cccnc4c4ncccc4c3[nH]2)cc1	SK-MEL-28	cell viability		1% O2, together with: blue light 453 nm, 100 J/cm2		EC50	100 ± 14 µM
CCCCCCCCCCCCNC(=S)NCCCC[C@H](NC(=O)OCc1ccccc1)C(=O)N[C@H](C)C(=O)N[C@@H](CCCNC(=N)N)C(N)=O	Jurkat	cell growth or viability, MTT		72 h		EC50	1.17 to 6.89 µM
Cc1cccc(-c2cccc(C)n2)n1.Cc1cccc(-c2cccc(C)n2)n1.F[P-](F)(F)(F)(F)F.F[P-](F)(F)(F)(F)F.[Ru+2].c1ccc2c(-c3nc4c5cccnc5c5ncccc5c4[nH]3)c3ccccc3cc2c1	SK-MEL-28	cell viability		normoxia, together with: green light 523 nm, 100 J/cm2		EC50	2.31 ± 0.07 µM
COC(=O)[C@H](C)NC(=O)[C@H](C)NC(=O)c1csc(-c2cccnc2)n1	SCC-90	cell viability				EC50	> 30 µM
Cc1cccc(-c2cccc(C)n2)n1.Cc1cccc(-c2cccc(C)n2)n1.F[P-](F)(F)(F)(F)F.F[P-](F)(F)(F)(F)F.[Ru+2].c1cc2ccc3ccc(-c4nc5c6cccnc6c6ncccc6c5[nH]4)c4ccc(c1)c2c34	SK-MEL-28	cell viability		1% O2, together with: blue light 453 nm, 100 J/cm2		EC50	38.4 ± 1.1 µM
C=C(NC(=O)c1csc(-c2ccc(NC(=O)CCCCCBr)cc2)n1)C(=O)NC(=C)C(=O)OC	C4-2	cell growth or viability				EC50	7.1 µM

Repeated from above:
SMILES	target or system	assay	system	conditions	how to read	quantity	value
CNS(=O)(=O)Nc1nccc(Cc2c(C)c3ccc(Oc4ncccc4F)cc3oc2=O)c1F	HMC-1.2	cell viability, CellTiter-Glo		7 days		IC50	0.0242 µM
CC(=S)NCCCC[C@H](NC(=O)OCc1ccccc1)C(=O)N[C@@H](Cc1c[nH]c2ccccc12)C(=O)NC(C)C	Jurkat	cell growth or viability, MTT		72 h		EC50	65 to 76 µM
